Assay results of several laboratories.

| SMILES | test | system | setting | how to read | measurement | result |
| --- | --- | --- | --- | --- | --- | --- |
| FC(F)(F)c1ccc(CNc2ccc(Cc3c[nH]c4ncc(Cl)cc34)cn2)cn1 | refers to: at least 1 adverse event | patients with TGCT | oral, 1000 mg/day, grade 3 or higher |  | patients with treatment-related adverse event | 36% |
| COc1cc(Nc2ncc3c(n2)-c2ccc(Cl)cc2C(c2c(F)cccc2OC)=NC3)ccc1C(=O)O | refers to: back pain, grade 1 | cancer patients, phase 1/2 | oral, dose not given, with: pembrolizumab |  | patients with adverse event | 13% |
| COc1ccc([C@@H](O)c2cc(-c3ncnc4cc(N5CCOCC5)ccc34)c(F)cc2Cl)nn1 | refers to: Proctitis | locally advanced rectal cancer patients | dose not given, all dose groups, with: capecitabine plus radiotherapy |  | patients with drug-related AE | 37% |
| C[C@@H](Nc1cc(F)cc(F)c1)c1cc(C(=O)N(C)C)cc2c(=O)cc(N3CCOCC3)oc12 | CTCAE v4, refers to: alkaline phosphatase increased | patients with advanced solid tumours | oral, dose not given, phase I dose expansion |  | patients discontinuing for AE | 0% |
| C[C@@H](c1ccc2nccn2c1)n1nnc2ncc(-c3cnn(C)c3)nc21 | refers to: treatment-related grade ≥3 Myalgia | EGFR-mutant MET-altered NSCLC | oral, dose not given, all |  | patients with adverse events | 0% |
| Cc1cc(NC2CCN(C(=O)OC3CCN(C(=O)/C=C/CN(C)C)C3)CC2)n2ncc(C(C)C)c2n1 (stereo not drawn) | Phase I dose escalation CTCAE v4.0, refers to: back pain | patients with advanced solid tumours | dose not given, QD dosing any grade |  | patients with adverse event | 7% |
| O=C(Nc1nc2cccc(-c3ccc(CN4CCS(=O)(=O)CC4)cc3)n2n1)C1CC1 |  | rheumatoid arthritis patients | oral, 100 mg twice daily, 4 weeks, regardless of relatedness |  | patients with epigastric discomfort | 0% |
| Cc1cc(-c2nnc(N)nc2-c2ccc(F)cc2)cc(Cl)n1 | refers to: Hyperthyroidism | IO-naive mCRPC patients, male | oral, dose not given, treatment-related, grade 2 |  | patients with immune-mediated AE | 0% |
| CNC(=O)c1ccc(-c2cnc3ncc(Cc4ccc5ncccc5c4)n3n2)cc1F | refers to: Insomnia | hepatocellular carcinoma patients | oral, 600 mg twice daily, expansion cohort, grade 3-4 |  | patients with adverse event | 0% |
| C=CC(=O)Nc1cc(Nc2nccc(-c3cn(C)c4ccccc34)n2)c(OC)cc1N(C)CCN(C)C | refers to: Pneumonitis grade ≥3 | EGFR-mutant MET-altered NSCLC | oral, dose not given, study |  | patients with treatment-related AEs | 0% |
| CCOc1c([C@H](C)n2nc(C)c3c(N)ncnc32)cc(Cl)c(F)c1[C@@H]1CNC(=O)C1 | refers to: QTcF change above 60 ms | previously treated B-cell malignancy | oral, 45 mg once daily, baseline QTcF ≤450 ms | relative to: baseline | patients | 0% |
| NC(=O)N1c2ccccc2C=Cc2ccccc21 |  | male patients | oral, dose not given, treatment-related adverse events |  | patients with abdominal discomfort | 7% |

A few entries again:
| SMILES | test | system | setting | how to read | measurement | result |
| --- | --- | --- | --- | --- | --- | --- |
| C[C@@H](c1ccc2nccn2c1)n1nnc2ncc(-c3cnn(C)c3)nc21 | refers to: treatment-related grade ≥3 Myalgia | EGFR-mutant MET-altered NSCLC | oral, dose not given, all |  | patients with adverse events | 0% |
